Results from different studies.
Numbered parts are unrelated; each lists some results of a single study. Values joined by “and” are separate records of one study, mostly repeats; a detail may differ.

Set 1
Cell line: HEK-293T
Read-out: pseudovirus infection
Method: FDA-approved drug library screen
Organism: VSV pseudotyped with SARS-CoV-2 spike
Tested at: 10 µM
Time: 16 h
Reference: vehicle-treated
Quantity: GFP-positive cells
Nc1nc(=O)c2nc(CNc3ccc(C(=O)N[C@@H](CCC(=O)O)C(=O)O)cc3)cnc2[nH]1: 77.4%
O=C(O[C@H]1C[C@H]2CC[C@@H](C1)[N+]21CCCC1)C(O)(c1ccccc1)c1ccccc1: 75.7%
c1ccc(Cc2nc3ccccc3[nH]2)cc1: 80.8%

Set 2
Target: RNA binding protein fox-1 homolog 2, RRM domain, GST-SBP tag (RBFOX2, Homo sapiens, UniProt O43251-10, residues 100-194)
Method: RNA Bind-n-Seq
Form: RNA
Sample: in vitro
Tested at: 365 nM
Notes: natural RNA segment, single round, ends assumed
Reference: no-protein control
Direction: higher = stronger binding
Quantity: RBNS enrichment (R)
Target sequence (chain): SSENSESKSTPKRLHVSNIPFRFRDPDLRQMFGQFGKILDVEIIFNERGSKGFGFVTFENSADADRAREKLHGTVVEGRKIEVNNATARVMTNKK
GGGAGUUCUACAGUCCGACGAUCGGACAACACUAACACAGGACCCUUGUUGCUACCUGGUUCUGACUCCAGACAACCACAAUGCCAGGUACGGGGUCUCUGAGCAGCAGCCAGUGCAGAUCCCCAUUUGCAGUUGGAAUUCUCGGGUGCCAA: 0.378
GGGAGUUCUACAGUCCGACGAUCAAGCCCCUCGCUCUCCCCUCUCUGUUUUCCCAUUAAUCAAAGCCAUGUCUAGAAUGGGCCAGCCACCUUGCAGUAAAAUCAAUGAGUUCUGAAGCAACCUUCAAUUUUCAUGGAAUUCUCGGGUGCCAA: 0.465
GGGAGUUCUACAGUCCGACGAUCAGACUCAAUGAGUUAAUACUAUUUCACUGAGCCCAAGAUGGAAACUUGGUUUGACCUAAAACAUCUGAUUAAUAUAGGCUAGCUGAUUUCUUAAAAAUUCGUUGCAUUGAUGGAAUUCUCGGGUGCCAA: 0.316
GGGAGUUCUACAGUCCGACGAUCUGUGUGUGCCACAUUUUUAAAUUUUGUCAAGGUUUACCCACACACACACCAAUCAAAACCUUAUUGGUCUGGAAGUUGGGAUUCCGUUUUUGGUAGAUCGUGGUAGAUCUUGGAAUUCUCGGGUGCCAA: 0.347
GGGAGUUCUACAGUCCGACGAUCGGUGGCAACAUGGUUCUUGAACAAUUAAAGAAACAAAUGACUUUUUGGAAUAGCCCUGUCUAGGGCAAACUGUGGCCCCCAGGAGACACUACCCUUCCAUGCCCCAGACCUGGAAUUCUCGGGUGCCAA: 0.452
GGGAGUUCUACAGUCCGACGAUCUUGGGCCCAGAAAGGGGUUUCCAGCUGGGGGCACGUGGACUGGUUCUGCUGUUUUUGGCAGUCGCUUUUCUGAAUUCUCCCCUCCGGCAGCCUUCCAGAGACUGAUCCUGUGGAAUUCUCGGGUGCCAA: 0.306
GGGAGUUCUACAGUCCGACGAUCUGCUCCUGUCACUCUUCAAAAACACCCCUUCUAUUACUGCCUCCGGGGAUGAAGCAGUAGCUAGGUUGCUUAACCUCCCCUCUCCAGCAGAGGCAUAAUCCAGAUAAGUAUGGAAUUCUCGGGUGCCAA: 1.62
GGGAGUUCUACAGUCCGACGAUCGAUGGGCUUCUGUUCUCUGCUGAGGGCCAAUACCCUACUGUGGGGAGAGAUGGCACACCAGAUGCUUUUGUGAGAAAGGGAUGGUGGAGUGAGAGCCUUUGCCUUUAGGGUGGAAUUCUCGGGUGCCAA: 0.202

Set 3
Target: Replicase polyprotein 1ab, main protease (rep, Severe acute respiratory syndrome coronavirus 2, UniProt P0DTD1)
Read-out: enzyme activity
Action: inhibitor
Tested at: 20 µM
Notes: hit confirmation
Quantity: inhibition
CC(C)N(CCC(=O)c1ccc2ccccc2c1)Cc1ccccc1: 43.3% and 78.2%
Oc1ccc2c3c1O[C@H]1c4[nH]c5c(c4C[C@@]4(O)[C@@H](C2)N(CC2CC2)CC[C@]314)C[C@@]1(O)[C@H]2Cc3ccc(O)c4c3[C@@]1(CCN2CC1CC1)[C@H]5O4: 60.4%
C/N=c1/nc(-c2ccccc2)n(-c2ccccc2)s1: 100%
C[Se]CCC(N)C(=O)O (stereo not drawn): -2.9%

Set 4
Target: Replicase polyprotein 1ab, nsp13 helicase (rep, Severe acute respiratory syndrome coronavirus 2, UniProt P0DTD1)
Action: inhibitor
Tested at: 20 µM
Quantity: inhibition
O=C(/C=C/c1ccc(CN(CCO)CCc2c[nH]c3ccccc23)cc1)NO: 7.13%
CC[n+]1c(-c2ccccc2)c2cc(N)ccc2c2ccc(N)cc21: 59.5%
CN1CCc2cc3c(cc2[C@H]1[C@@H]1OC(=O)c2c1ccc1c2OCO1)OCO3: 2.51%
CCC(=O)O[C@]1(C(=O)CCl)[C@@H](C)C[C@H]2[C@@H]3C[C@H](F)C4=CC(=O)C=C[C@]4(C)[C@@]3(F)[C@@H](O)C[C@@]21C: 8.37%
OC[C@@H](O)[C@@H](O[C@@H]1O[C@H](CO)[C@H](O)[C@H](O)[C@H]1O)[C@H](O)[C@@H](O)CO: 2.66%
CC(C)n1c(=O)n(C(=O)NC2C[C@H]3CC[C@@H](C2)N3C)c2ccccc21 (stereo partly drawn): -1.12%
c1ccc(N2CCN(Cc3nc4ccccc4[nH]3)CC2)nc1: -0.28%
CCC[C@@H]1CC(=O)N([C@@H](CC)C(N)=O)C1: 0.21%
C[C@H](N)[C@H](O)c1ccc(O)c(O)c1: 32.6%
C1CCC2(CC1)CCNCC2: 5.41%
CC1(C)Oc2ccc(C#N)cc2[C@H](N(Cc2ncc[nH]2)c2ccc(Cl)cc2)[C@H]1O: 3.81%
COC(=O)c1ccc(N2CCN(C)CC2)c(NC(=O)c2cccc(OC)c2)c1: -2.35%
CCCOc1ccc2[nH]c(NC(=O)OC)nc2c1: 6.46%
CC[C@H](C)n1cc(C)c2c(C(=O)NCc3c(C)cc(C)[nH]c3=O)cc(-c3ccc(N4CCNCC4)nc3)cc21: 6.27%
CCOc1ccccc1C(N)=O: 6.23%
CC(C)c1ccccc1Cc1cc(C(=O)Nc2ccc(S(=O)(=O)c3ccccc3C(C)(C)C)cc2)c(O)c(O)c1O: 3.76%
CC[C@H](C)C(=O)O[C@H]1CCC=C2C=C[C@H](C)[C@H](CC[C@@H]3C[C@@H](O)CC(=O)O3)[C@H]21: 5.81%
O=C(O)CCNc1cc(N2CCc3ccccc3CC2)nc(-c2ccccn2)n1: -0.36%
CC1(C)CC(=O)c2c(C(F)(F)F)nn(-c3ccc(C(N)=O)c(N[C@H]4CC[C@H](OC(=O)CN)CC4)c3)c2C1: 7.7%
O=C(OCC(COC(=O)c1cccnc1)(COC(=O)c1cccnc1)COC(=O)c1cccnc1)c1cccnc1: -3.26%
CCc1ccc(CCOc2ccc(CC3SC(=O)NC3=O)cc2)nc1 (stereo not drawn): 3.9%
CC(C)c1ccccc1S(=O)(=O)c1cc(N)c2ncccc2c1[N+](=O)[O-]: 3.03%

Set 5
Target: Interferon regulatory factor 5, full length, phosphomimetic (IRF5, Homo sapiens, UniProt Q13568-2, residues 1-514, K96S/S451D/S453D/S456D/S462D)
Method: protein-binding microarray
Form: double-stranded DNA, one strand shown
Sample: in vitro
Tested at: 250 nM
Notes: 60-bp whole probe
Together with: salmon DNA 0.4 mg/ml
Reference: random background probes
Direction: higher = stronger binding
Quantity: log fluorescence
All sequences stand within: GCCTAGCAC … GTCTTGATTCGCTTGACGCTGCTG
TTAGAAGTGAGTTTCGATTAGTGCTAG: 8.98 z-score
TCAAGAAAGTGAAATACCACTGTGCTA: 1.13 z-score
GACGAACTGGGGTATCGAGATGTGCTA: 0.283 z-score
TCACATTGCTGCCCTCAGACTGTGCTA: -0.0768 z-score
TTAGGTTGCGGTATCGGTTAGTGCTAG: 5.15 z-score
TCAGAGTTCTGTTGCAAACTGTGCTAG: 0.0778 z-score
GACGATCTCAGTATCGATACGTGCTAG: 6.8 z-score
TCATGTCTGGGTCTTGGACTGTGCTAG: -0.101 z-score

For quick reference, copied from above (set 4):
C[C@H](N)[C@H](O)c1ccc(O)c(O)c1: 32.6%
C1CCC2(CC1)CCNCC2: 5.41%
CC1(C)Oc2ccc(C#N)cc2[C@H](N(Cc2ncc[nH]2)c2ccc(Cl)cc2)[C@H]1O: 3.81%
COC(=O)c1ccc(N2CCN(C)CC2)c(NC(=O)c2cccc(OC)c2)c1: -2.35%
CCCOc1ccc2[nH]c(NC(=O)OC)nc2c1: 6.46%
